Measurements pooled from the literature.
Each numbered part is a random draw from the data of one study; scales do not carry over between parts.

Sample 1
Target: Histone acetyltransferase KAT6A, winged helix 1, GST fusion (KAT6A, Homo sapiens, UniProt Q92794, residues 1-85)
Method: protein binding microarray
Molecule type: double-stranded DNA, one strand shown
Matrix: in vitro
Concentration: not given
Notes: 8-mer, flanks averaged, mean of 2 arrays, mostly near background
Relative to: not given
Direction: higher = stronger binding
Endpoint: E-score
Target sequence (chain): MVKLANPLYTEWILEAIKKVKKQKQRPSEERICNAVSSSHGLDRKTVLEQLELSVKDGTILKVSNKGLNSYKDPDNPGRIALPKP
Sequence = ATCGCGCG; result = 0.425
Sequence = ACGCGAGA; result = 0.0818
Sequence = CGAAATCA; result = -0.0755
Sequence = TACACGTA; result = -0.0259

Sample 2
Target: Prothrombin, mature alpha-thrombin (F2, Homo sapiens, UniProt P00734)
Method: aptamer microarray, sandwich
Molecule type: DNA with 2'F-ANA
Matrix: in vitro
Concentration: 200 nM
Notes: whole 15-mer aptamer, many near background
Together with: Cy3 exosite-II aptamer, 400 nM
Direction: higher = stronger binding
Endpoint: mean fluorescence intensity
Sequence = GGTTGGTGTGGTTGG (2'F-ANA at 2 3 9 10 12); result = 485 a.u.
Sequence = GGTTGGTGTGGTTGG (2'F-ANA at 1 2 3 6 7 11 14); result = 71 a.u.
Sequence = GGTTGGTGTGGTTGG (2'F-ANA at 1 6 7 9 10 12 15); result = 78.9 a.u.

Sample 3
Target: Interferon regulatory factor 3, full length, phosphomimetic (IRF3, Homo sapiens, UniProt Q14653, residues 1-427, S386D/S396D/S398D/S402D/T404D/S405D)
Method: protein-binding microarray
Molecule type: double-stranded DNA, one strand shown
Matrix: in vitro
Concentration: 2540 nM top
Notes: 60-bp whole probe
Together with: salmon DNA 0.4 mg/ml
Relative to: random background probes
Direction: higher = stronger binding
Endpoint: fitted relative affinity
Target sequence (chain): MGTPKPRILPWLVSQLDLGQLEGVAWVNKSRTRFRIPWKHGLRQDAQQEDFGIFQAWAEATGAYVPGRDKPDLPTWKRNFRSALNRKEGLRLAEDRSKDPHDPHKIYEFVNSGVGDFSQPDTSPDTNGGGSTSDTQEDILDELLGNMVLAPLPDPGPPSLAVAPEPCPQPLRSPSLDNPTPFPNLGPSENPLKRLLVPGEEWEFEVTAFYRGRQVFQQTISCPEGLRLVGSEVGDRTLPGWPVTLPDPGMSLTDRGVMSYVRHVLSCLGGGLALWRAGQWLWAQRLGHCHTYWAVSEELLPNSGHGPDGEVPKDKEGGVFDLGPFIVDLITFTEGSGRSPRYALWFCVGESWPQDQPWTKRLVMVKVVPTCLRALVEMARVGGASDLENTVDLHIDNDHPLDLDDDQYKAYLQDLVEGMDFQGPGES
Sequence = GCCTAGCACGACGATTTCGGGATTCGAGACGTGCTAGTCTTGATTCGCTTGACGCTGCTG; result = 1.99 z-score
Sequence = GCCTAGCACGACGGTATCGGTCTTGGGACGTGCTAGGTCTTGATTCGCTTGACGCTGCTG; result = 4.77 z-score
Sequence = GCCTAGCACGACCGTTCCCTTTTCCTGACGTGCTAGGTCTTGATTCGCTTGACGCTGCTG; result = 5.22 z-score

Other studies, line by line
Substance = PhoQ, residues 284 288 289 292 302 303 TNASYF; target = PhoP, residues 12 14 15 18 19 QWHVF (Escherichia coli, UniProt P23836); assay = Sort-seq, refers to: YFP reporter; system = E. coli; setting = PhoQ-PhoP variant library, together with: 10 µM Mg2+; scale = relative to: high Mg2+ state, higher = stronger signaling; endpoint = fold induction; result = 9.53

A few entries again (sample 2):
Sequence = GGTTGGTGTGGTTGG (2'F-ANA at 1 6 7 9 10 12 15); result = 78.9 a.u.
